Results gathered from unrelated publications.
Lines come from different studies, so protocols differ. ± marks the error that the study gave.
ADORA1: Adenosine receptor A1 (ADORA1, Homo sapiens, UniProt P30542)
UniProt P30542, sequence (whole entry, looked up): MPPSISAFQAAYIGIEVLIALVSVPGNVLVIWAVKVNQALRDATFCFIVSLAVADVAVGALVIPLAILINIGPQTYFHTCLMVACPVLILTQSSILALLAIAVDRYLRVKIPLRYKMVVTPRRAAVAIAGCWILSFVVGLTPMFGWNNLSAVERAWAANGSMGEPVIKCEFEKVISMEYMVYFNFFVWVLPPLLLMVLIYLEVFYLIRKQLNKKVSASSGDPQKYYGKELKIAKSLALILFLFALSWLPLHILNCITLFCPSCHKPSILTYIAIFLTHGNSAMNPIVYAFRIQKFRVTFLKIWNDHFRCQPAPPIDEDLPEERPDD
PIK3CA: Phosphatidylinositol 4,5-bisphosphate 3-kinase catalytic subunit alpha isoform (PIK3CA, Homo sapiens, UniProt P42336)
UniProt P42336, sequence (whole entry, looked up): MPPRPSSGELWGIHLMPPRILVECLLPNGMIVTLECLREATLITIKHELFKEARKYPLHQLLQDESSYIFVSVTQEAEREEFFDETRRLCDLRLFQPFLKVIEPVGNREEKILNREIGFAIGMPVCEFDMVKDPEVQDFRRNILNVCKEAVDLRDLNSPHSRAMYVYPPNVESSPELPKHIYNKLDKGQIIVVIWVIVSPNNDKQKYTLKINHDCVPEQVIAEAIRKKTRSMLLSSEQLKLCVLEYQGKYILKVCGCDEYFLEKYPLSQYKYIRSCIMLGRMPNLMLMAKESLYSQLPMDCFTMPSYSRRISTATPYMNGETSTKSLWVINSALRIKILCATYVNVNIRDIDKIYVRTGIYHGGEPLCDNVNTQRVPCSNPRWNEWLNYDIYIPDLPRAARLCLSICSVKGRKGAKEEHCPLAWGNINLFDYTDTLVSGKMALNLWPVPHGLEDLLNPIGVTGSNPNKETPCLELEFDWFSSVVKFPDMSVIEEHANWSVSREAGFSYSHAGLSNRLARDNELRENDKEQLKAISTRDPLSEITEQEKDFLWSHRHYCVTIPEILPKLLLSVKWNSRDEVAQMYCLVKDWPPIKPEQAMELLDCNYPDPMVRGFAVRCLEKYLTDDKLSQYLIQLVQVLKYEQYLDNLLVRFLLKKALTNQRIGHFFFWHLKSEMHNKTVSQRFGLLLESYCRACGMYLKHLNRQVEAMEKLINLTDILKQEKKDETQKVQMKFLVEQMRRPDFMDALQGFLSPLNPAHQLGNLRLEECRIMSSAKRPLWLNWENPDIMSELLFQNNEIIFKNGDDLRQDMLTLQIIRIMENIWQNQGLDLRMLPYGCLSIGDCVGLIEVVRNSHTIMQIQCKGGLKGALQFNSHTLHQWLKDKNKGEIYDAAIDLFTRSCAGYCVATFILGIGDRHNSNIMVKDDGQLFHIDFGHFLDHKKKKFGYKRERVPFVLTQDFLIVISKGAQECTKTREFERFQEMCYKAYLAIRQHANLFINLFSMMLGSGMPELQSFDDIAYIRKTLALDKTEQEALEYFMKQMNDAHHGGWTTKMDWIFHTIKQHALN
RIPK2: Receptor-interacting serine/threonine-protein kinase 2 (RIPK2, Homo sapiens, UniProt O43353)
UniProt O43353, sequence (whole entry, looked up): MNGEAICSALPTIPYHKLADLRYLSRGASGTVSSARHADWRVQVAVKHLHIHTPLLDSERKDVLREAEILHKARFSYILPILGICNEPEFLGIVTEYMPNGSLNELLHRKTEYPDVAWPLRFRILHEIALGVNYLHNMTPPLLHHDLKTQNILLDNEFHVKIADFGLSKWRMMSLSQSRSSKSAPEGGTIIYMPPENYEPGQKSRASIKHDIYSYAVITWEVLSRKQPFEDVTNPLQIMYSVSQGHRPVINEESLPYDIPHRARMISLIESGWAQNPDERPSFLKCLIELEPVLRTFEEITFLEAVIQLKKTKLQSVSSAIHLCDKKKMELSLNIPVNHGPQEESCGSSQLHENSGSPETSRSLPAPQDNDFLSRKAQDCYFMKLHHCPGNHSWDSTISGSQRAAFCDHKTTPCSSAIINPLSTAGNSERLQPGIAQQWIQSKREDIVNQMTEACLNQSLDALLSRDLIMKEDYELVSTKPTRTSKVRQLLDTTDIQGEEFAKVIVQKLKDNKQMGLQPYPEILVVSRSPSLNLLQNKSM
STS: Steryl-sulfatase (STS, Homo sapiens, UniProt P08842)
UniProt P08842, sequence (whole entry, looked up): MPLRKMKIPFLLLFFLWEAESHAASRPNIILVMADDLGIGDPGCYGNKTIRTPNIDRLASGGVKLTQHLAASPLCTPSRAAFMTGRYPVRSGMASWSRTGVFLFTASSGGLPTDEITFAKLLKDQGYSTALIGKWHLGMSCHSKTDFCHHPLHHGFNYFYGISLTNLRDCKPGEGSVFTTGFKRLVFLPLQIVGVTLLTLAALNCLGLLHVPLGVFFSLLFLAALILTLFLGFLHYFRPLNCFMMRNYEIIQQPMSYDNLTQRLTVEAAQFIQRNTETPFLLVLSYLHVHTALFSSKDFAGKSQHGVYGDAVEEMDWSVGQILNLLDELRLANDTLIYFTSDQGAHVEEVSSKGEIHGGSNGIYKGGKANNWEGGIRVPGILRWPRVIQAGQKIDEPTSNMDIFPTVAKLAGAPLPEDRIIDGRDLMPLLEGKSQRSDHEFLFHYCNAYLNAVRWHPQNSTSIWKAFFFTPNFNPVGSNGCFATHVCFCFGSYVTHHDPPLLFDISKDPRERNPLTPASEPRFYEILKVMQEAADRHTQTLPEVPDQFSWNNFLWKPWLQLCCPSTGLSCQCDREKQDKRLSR
MAPK10: Mitogen-activated protein kinase 10 (MAPK10, Homo sapiens, UniProt P53779)
UniProt P53779, sequence (whole entry, looked up): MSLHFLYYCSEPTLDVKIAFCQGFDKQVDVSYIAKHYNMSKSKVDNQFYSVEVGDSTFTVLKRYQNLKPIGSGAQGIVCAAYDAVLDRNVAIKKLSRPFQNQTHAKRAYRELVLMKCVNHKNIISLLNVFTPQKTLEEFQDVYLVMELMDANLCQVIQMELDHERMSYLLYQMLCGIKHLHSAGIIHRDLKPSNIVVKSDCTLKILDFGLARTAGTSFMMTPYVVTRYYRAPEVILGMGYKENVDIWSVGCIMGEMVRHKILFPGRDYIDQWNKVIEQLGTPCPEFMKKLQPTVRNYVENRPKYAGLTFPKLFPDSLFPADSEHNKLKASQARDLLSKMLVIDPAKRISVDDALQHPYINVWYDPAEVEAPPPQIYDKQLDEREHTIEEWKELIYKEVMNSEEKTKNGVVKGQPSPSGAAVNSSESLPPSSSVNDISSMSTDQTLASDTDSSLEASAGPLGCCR
UniProt P21462, sequence (whole entry, looked up): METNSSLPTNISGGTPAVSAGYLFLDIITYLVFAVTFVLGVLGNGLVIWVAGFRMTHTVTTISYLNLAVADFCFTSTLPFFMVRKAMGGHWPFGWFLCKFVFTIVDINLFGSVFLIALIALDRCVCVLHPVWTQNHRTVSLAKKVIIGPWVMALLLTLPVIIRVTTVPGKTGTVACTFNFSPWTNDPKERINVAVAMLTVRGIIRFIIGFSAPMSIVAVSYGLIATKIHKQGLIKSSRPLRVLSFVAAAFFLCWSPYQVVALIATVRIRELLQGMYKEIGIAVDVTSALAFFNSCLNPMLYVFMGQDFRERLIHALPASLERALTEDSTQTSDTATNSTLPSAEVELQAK
UniProt P07339, sequence (whole entry, looked up): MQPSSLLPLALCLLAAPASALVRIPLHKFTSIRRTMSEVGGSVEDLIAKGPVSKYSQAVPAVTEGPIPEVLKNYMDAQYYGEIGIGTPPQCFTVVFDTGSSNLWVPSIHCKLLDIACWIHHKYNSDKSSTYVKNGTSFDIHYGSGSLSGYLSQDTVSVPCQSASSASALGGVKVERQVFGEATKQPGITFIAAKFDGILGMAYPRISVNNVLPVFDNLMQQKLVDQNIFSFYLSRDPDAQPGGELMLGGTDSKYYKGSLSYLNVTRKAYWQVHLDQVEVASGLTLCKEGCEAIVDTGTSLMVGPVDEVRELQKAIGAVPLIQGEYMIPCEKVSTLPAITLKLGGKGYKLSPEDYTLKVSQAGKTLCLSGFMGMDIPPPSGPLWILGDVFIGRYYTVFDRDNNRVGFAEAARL
UniProt Q9UL62, sequence (whole entry, looked up): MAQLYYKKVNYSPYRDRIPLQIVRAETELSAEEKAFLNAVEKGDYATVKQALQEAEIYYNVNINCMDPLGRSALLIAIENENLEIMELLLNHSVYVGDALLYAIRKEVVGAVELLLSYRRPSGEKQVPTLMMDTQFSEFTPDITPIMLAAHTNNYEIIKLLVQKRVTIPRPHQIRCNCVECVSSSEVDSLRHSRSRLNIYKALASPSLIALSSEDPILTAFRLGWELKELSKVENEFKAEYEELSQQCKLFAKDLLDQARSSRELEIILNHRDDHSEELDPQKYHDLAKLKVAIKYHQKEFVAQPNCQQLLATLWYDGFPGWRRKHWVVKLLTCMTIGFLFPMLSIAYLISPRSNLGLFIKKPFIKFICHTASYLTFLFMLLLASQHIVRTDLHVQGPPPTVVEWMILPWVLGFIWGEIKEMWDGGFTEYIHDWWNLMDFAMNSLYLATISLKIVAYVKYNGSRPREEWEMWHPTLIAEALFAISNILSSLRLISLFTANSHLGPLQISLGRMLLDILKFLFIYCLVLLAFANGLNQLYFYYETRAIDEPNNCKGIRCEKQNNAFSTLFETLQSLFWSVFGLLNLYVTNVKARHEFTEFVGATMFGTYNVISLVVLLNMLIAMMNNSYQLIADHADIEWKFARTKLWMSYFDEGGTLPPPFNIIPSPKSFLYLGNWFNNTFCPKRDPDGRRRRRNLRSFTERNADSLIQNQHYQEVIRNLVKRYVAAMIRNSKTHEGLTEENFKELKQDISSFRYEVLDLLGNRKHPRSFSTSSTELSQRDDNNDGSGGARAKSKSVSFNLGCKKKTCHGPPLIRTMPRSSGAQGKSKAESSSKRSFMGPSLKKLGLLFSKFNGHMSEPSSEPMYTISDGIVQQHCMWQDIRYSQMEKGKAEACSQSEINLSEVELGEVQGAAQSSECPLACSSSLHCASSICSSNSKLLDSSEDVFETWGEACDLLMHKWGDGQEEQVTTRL
UniProt P42574, sequence (whole entry, looked up): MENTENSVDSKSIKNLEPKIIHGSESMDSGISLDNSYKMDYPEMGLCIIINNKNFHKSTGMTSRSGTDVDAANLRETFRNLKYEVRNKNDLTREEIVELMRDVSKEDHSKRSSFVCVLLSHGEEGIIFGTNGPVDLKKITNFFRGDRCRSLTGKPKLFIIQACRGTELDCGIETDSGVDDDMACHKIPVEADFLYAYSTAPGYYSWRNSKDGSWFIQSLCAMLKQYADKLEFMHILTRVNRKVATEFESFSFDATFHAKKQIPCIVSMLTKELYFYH

CC(C)[C@H](NC(=O)c1ccc2ccccc2n1)C(=O)N[C@@H](CC(=O)O)C(=O)N[C@H](C(=O)N[C@@H](C)C(=O)N[C@@H](CC(=O)O)C(=O)COc1c(F)cccc1F)C(C)C  IC50 (Caspase-3 (CASP3, Homo sapiens, UniProt P42574); enzyme activity, inhibitor): 0.42 nM
O[C@H]1[C@H](O)[C@@H](O)c2[nH]cnc2[C@@H]1O  IC50 (β-glucosidase (sweet almond); inhibitor): > 100000 nM
COc1cc(O)ccc1CC[C@H](c1ccc(O)cc1)c1cc2c(c(C)c1O)O[C@H](c1ccc(O)cc1)CC2  IC50 (ALOX5 (Homo sapiens, UniProt P09917); 5-LO product formation; human PMNL; added: A23187 plus arachidonic acid): 2100 nM
Nc1ncnc2c1ncn2C1OC(COc2cccc(CCC(=O)c3ccccc3C(=O)O)c2)C(O)C1O (stereo not shown)  IC50 (2-succinylbenzoate--CoA ligase (menE, Escherichia coli, UniProt P37353); enzyme activity, inhibitor, MenB-MenE coupled): 8000 nM
CCNS(=O)(=O)c1ccc(COc2ccc3nc4ccc(=O)cc-4oc3c2)cc1  IC50 (DDR2 (Homo sapiens, UniProt Q16832); phosphorylation in cells, inhibitor, western blot): 286 nM
Oc1cccc2c(NCCc3c[nH]cn3)nnc(Cl)c12  IC50 (iron superoxide dismutase Trypanosoma cruzi; enzyme activity, inhibitor; epimastigote homogenate fraction): ~27000 nM
C#CC(=O)Nc1ccc2nc(NCCCCCN(C)C)nc(NCCCCCCN(C)C)c2c1  IC50 (Histone-lysine N-methyltransferase SETDB1, triple Tudor domain (SETDB1, Homo sapiens, UniProt Q15047); binding, inhibitor): 660 ± 260 nM
CCCn1c(=O)c2[nH]c(-c3ccc(OCC(=O)NCCNC(=O)CCCCCCCNS(=O)(=O)c4cccc5c(N(C)C)cccc45)cc3)nc2n(CCC)c1=O  IC50 (ADORA1; ligand displacement in cells, radioligand): 170 nM
COc1ccc(C(=O)/C=C(\O)C(F)(F)C(F)(F)F)cn1  IC50 (Formate-nitrite transporter (Plasmodium vivax, UniProt A0A1G4GWI6)): 250 ± 20 nM
CC[C@H](C)[C@H](NC(=O)[C@H](CC(N)=O)NC(=O)[C@@H](NC(=O)[C@H](Cc1c[nH]cn1)NC(=O)[C@H](CCCNC(=N)N)NC(=O)[C@@H](N)[C@@H](C)O)C(C)C)C(=O)N[C@@H](CC(C)C)C(=O)N[C@@H](CC(C)C)C(=O)N[C@@H](Cc1ccccc1)C(=O)N[C@@H](CCSC)C(=O)O  IC50 (Serine/threonine-protein kinase B-raf, phosphorylated (BRAF, Homo sapiens, UniProt P15056); enzyme activity, inhibitor, ELISA): 213 to 1650 nM
COC(=O)C1CCCN1C(=O)C(Cc1ccccc1)N(C)C(=O)CC(O)C(CC(C)C)NC(=O)C(CC(C)C)N(C)C(=O)C(CC(C)C)NC(=O)C(O)C(C)C (stereo not shown)  IC50 (Cathepsin D (CTSD, Homo sapiens, UniProt P07339); enzyme activity, inhibitor, fluorescence; pH 3.5): 66 nM
CCOC(=O)c1ccc2c(c1)n(CC)[c]([Au-]([Cl])([Cl])[Cl])[n+]2CC  IC50 (trxB (Escherichia coli, UniProt P0A9P4); enzyme activity, inhibitor, absorbance; with preincubation): 332 nM
COc1ccc(/C=C2\SC(=S)NC2=O)c(O)c1  IC50 (PIK3CA; enzyme activity, inhibitor, radiometric): 4400 nM
COc1cc2c(cc1OC)C(c1cccs1)N(C(=O)CC1OC(=O)c3ccccc31)CC2 (stereo not shown)  IC50 (gyrB (Escherichia coli, UniProt P0AES6); enzyme activity, inhibitor): 17600 ± 400 nM
O=C(NO)C1=CCCC1  IC50 (hdac10 (Danio rerio, UniProt F1QCV2)): 147 ± 15 nM
CC(=O)C1=C(C)NC(=O)NC1c1ccc(Br)cc1 (stereo not shown)  IC50 (AMY2 (Sus scrofa, UniProt P00690); enzyme activity, inhibitor): 149000 nM
CCCC(=O)Oc1cc(OC(=O)CCC)c2c(c1)O[C@H](c1cc(OC(=O)CCC)c(OC(=O)CCC)c(OC(=O)CCC)c1)[C@H](OC(=O)c1cc(OC(=O)CCC)c(OC(=O)CCC)c(OC(=O)CCC)c1)C2  IC50 (Genome polyprotein, protease (Hepatitis C virus genotype 1a, UniProt P27958); enzyme activity, inhibitor, fluorescence): 980 nM
CCCn1cc(C(CC(=O)O)C(=O)O)c2ccccc21 (stereo not shown)  IC50 (P2Y purinoceptor 14 (P2RY14, Homo sapiens, UniProt Q15391); antagonist): 18.6 nM
CC[C@H](C)[C@@H]1NC(=O)[C@H](Cc2c[nH]c3ccccc23)NC(=O)CNC(=O)c2cc3cc(c2)C(=O)NC[C@@H](C(=O)NCCC(=O)NCCC(=O)N[C@@H](CCCCN)C(N)=O)NC(=O)[C@H](CCCNC(=N)N)NC(=O)[C@@H](CCCNC(=N)N)NC(=O)[C@H](CCCNC(=N)N)NC(=O)[C@H](Cc2ccc4ccccc4c2)NC(=O)[C@H](C)NC(=O)[C@H](CNC3=O)NC(=O)[C@H](C)NC(=O)[C@H](Cc2ccc(O)cc2)NC1=O  IC50 (NF-kappa-B essential modulator, with IKK-beta (IKBKG, Homo sapiens, UniProt Q9Y6K9); inhibitor, HTRF): 1900 ± 200 nM
CCOC(=O)CNC(=O)CN1C(=O)S/C(=C\c2ccc(OC)c(O)c2)C1=O  IC50 (α-amylase; enzyme activity, DNSA colorimetric): > 100000 nM
COc1ccc(-n2c(=O)c(C(=O)C3C(=O)CCCC3=O)nc3c(C)cccc32)cc1  IC50 (HPD (Arabidopsis thaliana, UniProt P93836); enzyme activity, inhibitor, HGD-coupled): 19 nM
C#CCn1c(Oc2cccc(C3(C(F)(F)F)N=N3)c2)nc2c1c(=O)n(CCCO)c(=O)n2C  IC50 (TRPC1/TRPC5 (TRPC1/TRPC5, Homo sapiens, UniProt P48995+Q9UL62); calcium influx, inhibitor, Fura-2; HEK T-REx expressing TRPC1/TRPC5; added: englerin A 30 nM): 196 nM
COc1cc(C2c3cc4c(cc3C(C(C)C)C3COC(=O)C23)OCO4)cc(OC)c1OC (stereo not shown)  IC50 (tubulin alpha/beta (Leishmania infantum, UniProt A0A381MCS3+A4HTR0); tubulin polymerization, inhibitor; 37 °C): 3500 ± 800 nM
CCC(=O)N1CC=C(c2cc3c(Nc4cc5ncsc5cc4F)ncnc3s2)CC1  IC50 (RIPK2; enzyme activity, inhibitor): 14 nM
CSCC[C@H](NC(=O)[C@H](CCCNC(=N)N)NC(=O)[C@H](C)NC(=O)[C@@H](NC(=O)[C@H](CCC(N)=O)NC(=O)[C@H](CCCCN)NC(=O)[C@@H](NC(=O)[C@H](CCCNC(=N)N)NC(=O)[C@H](C)N)[C@@H](C)O)[C@@H](C)O)C(=O)N[C@@H](CO)C(=O)N[C@H](C(=O)NCC(=O)NCC(=O)N[C@@H](CCCCN)C(=O)N[C@@H](C)C(=O)N1CCC[C@H]1C(=O)N[C@@H](CCCNC(=N)N)C(=O)N[C@@H](CCCCN)C(=O)N[C@@H](CCC(N)=O)C(=O)N[C@@H](CC(C)C)C(=O)O)[C@@H](C)O  IC50 (EHMT2 (Homo sapiens, UniProt Q96KQ7); enzyme activity, inhibitor): 3600 nM
Cc1cc(-c2ccc(/N=N/c3ccc4c(S(=O)(=O)O)cc(S(=O)(=O)O)c(N)c4c3O)c(C)c2)ccc1/N=N/c1ccc2c(S(=O)(=O)O)cc(S(=O)(=O)O)c(N)c2c1O  IC50 (Neutrophil elastase (ELANE, Homo sapiens, UniProt P08246); enzyme activity, inhibitor, absorbance; pH 7.4): 540 nM
CC(=O)Nc1ccc(C(=O)Nc2cc(-c3cccs3)ccc2N)cc1  IC50 (HDAC7 (Homo sapiens, UniProt Q8WUI4); deacetylase activity, inhibitor, recombinant enzyme): > 30000 nM
Nc1nc2c(ncn2C2CC(O)C(COP(=O)(O)OCCCNC(=O)c3cccc(-c4cccc(Br)c4)c3)O2)c(=O)[nH]1 (stereo not shown)  IC50 (SAMHD1 (Homo sapiens, UniProt Q9Y3Z3); dNTPase activity, inhibitor, malachite green; 50 µM dATP substrate, added: 200 µM GTP activator): 70000 ± 50000 nM
CC(C)C(=O)N1CC=C(c2cc3c(Nc4cc5ncsc5cc4F)ncnc3s2)CC1  IC50 (RIPK2; enzyme activity, inhibitor): 6 nM
N#Cc1ccc(N(Cc2c(Cl)cc(OS(N)(=O)=O)cc2Cl)n2cnnc2)cc1  IC50 (STS; enzyme activity, inhibitor; JEG-3 intact monolayers): 10 to 100 nM
CC(C)CN(CC(=O)NCCCCCCNC(=O)c1ccc(-c2n[nH]c3ccccc23)cc1)C(=O)CNC(=O)C1COc2ccccc2O1 (stereo not shown)  IC50 (MAPK10; enzyme activity, inhibitor): 63.4 nM
CNC(=O)C1CCN(c2cc(C)ccc2NC(=O)c2ccc(-c3cc(O)ccc3C)c(C)c2)CC1  IC50 (FGR (Homo sapiens, UniProt P09769); target engagement in cells, BRET): 4390 nM
Fc1ccc(-c2nc[nH]c2-c2ccnc(Nc3ccc(N4CCOCC4)cc3)c2)cc1  IC50 (MAPK10; enzyme activity, inhibitor, ELISA): 31 nM
CCNC(=O)[C@H]1O[C@@H](n2cnc3c(NCCCCCNC(=O)CCCCCNC(=O)COc4ccc(/C=C/C5=[N+]6C(=Cc7ccc(-c8cccs8)n7[B-]6(F)F)C=C5)cc4)ncnc32)[C@H](O)[C@@H]1O  IC50 (ADORA1; CRE reporter gene, agonist; CHO-A1; Gi-mediated inhibition, added: forskolin): 10.7 nM
CCCCNC(=O)c1cccc(S(=O)(=O)NC2CC2)c1  IC50 (Ectonucleoside triphosphate diphosphohydrolase 3 (Homo sapiens, UniProt O75355); enzyme activity, inhibitor, absorbance): 1490 nM
O=C(/C=C/c1ccc(O)c(O)c1)CC(=O)/C=C/c1ccc(O)c(O)c1  IC50 (PNLIP (Sus scrofa, UniProt P00591); enzyme activity, inhibitor, absorbance): 67800 nM
C[C@@H]1O[C@@H](O[C@@H]2[C@@H](O)[C@H](OCCc3ccc(O)c(O)c3)O[C@H](CO[C@@H]3O[C@H](CO)[C@@H](O)[C@H](O)[C@H]3O)[C@H]2OC(=O)/C=C/c2ccc(O)c(O)c2)[C@H](O)[C@H](O)[C@H]1O  IC50 (NUDT1 (Homo sapiens, UniProt P36639); enzyme activity, inhibitor, absorbance): 7010 nM
COc1cccc(Cc2cc(CCC(=O)NC3=C(C)C4=C(C)c5c(C)cc(C)n5[B-](F)(F)[N+]4=C3C)nn(CC(=O)Nc3ccc(Br)cc3)c2=O)c1  IC50 (FPR1 (Homo sapiens, UniProt P21462); calcium mobilisation, antagonist; HL-60 transfected): 1410 nM
Nc1ccc(-c2cc(Cl)c(Cl)c3[nH]c4c(c23)CN(C(=O)CO)CC4)cn1  IC50 (Cgas (Mus musculus, UniProt Q8C6L5); enzyme activity, inhibitor, mass spectrometry): 33500 nM
COC(=O)CCSc1nc2n(n1)C(c1cccc(OC)c1)C(C(=O)Nc1cccnc1)=C(C)N2 (stereo not shown)  IC50 (Phosphatidylinositol 4,5-bisphosphate 3-kinase catalytic subunit alpha isoform, with p85 (PIK3CA, Homo sapiens, UniProt P42336); enzyme activity, inhibitor, ADP detection): 516 nM
CCC(=O)N1CCC(NC(=O)NC23CC4CC(C)(CC(C)(C4)C2)C3)CC1  IC50 (Ephx2 (Mus musculus, UniProt P34914); enzyme activity, inhibitor, fluorescence): 5.2 nM
COc1c(OCCCN)ccc2c1N=C(NC(=O)c1cccnc1)N1CCN=C21  IC50 (PIK3CA; enzyme activity, inhibitor, radiometric): 4.7 nM
NS(=O)(=O)Oc1ccc2c3c(c(=O)oc2c1)CCC3  IC50 (STS; enzyme activity in cells, inhibitor): 32 nM
O=C([O][Ti+2][O]C(=O)c1ccc([P+]([Au-][Cl])(c2ccccc2)c2ccccc2)cc1)c1ccc([P+]([Au-][Cl])(c2ccccc2)c2ccccc2)cc1.c1cc[cH-]c1.c1cc[cH-]c1  IC50 (MAPKAPK2 (Homo sapiens, UniProt P49137); enzyme activity, inhibitor, radiometric): 317 nM
O=C(O)c1c(O)cccc1/C=C/c1ccc(O)cc1  IC50 (PTPN1 (Homo sapiens, UniProt P18031); enzyme activity, inhibitor, absorbance): > 100000 nM
COc1ccc(OCC(=O)c2ccc(O)c(C)c2O)cc1  IC50 (ESR2 (Homo sapiens, UniProt Q92731); coactivator recruitment, antagonist): 7290 nM

For quick reference, copied from above:
CCCn1c(=O)c2[nH]c(-c3ccc(OCC(=O)NCCNC(=O)CCCCCCCNS(=O)(=O)c4cccc5c(N(C)C)cccc45)cc3)nc2n(CCC)c1=O  IC50 (ADORA1; ligand displacement in cells, radioligand): 170 nM
COc1ccc(OCC(=O)c2ccc(O)c(C)c2O)cc1  IC50 (ESR2 (Homo sapiens, UniProt Q92731); coactivator recruitment, antagonist): 7290 nM
NS(=O)(=O)Oc1ccc2c3c(c(=O)oc2c1)CCC3  IC50 (STS; enzyme activity in cells, inhibitor): 32 nM
COc1cc(C2c3cc4c(cc3C(C(C)C)C3COC(=O)C23)OCO4)cc(OC)c1OC (stereo not shown)  IC50 (tubulin alpha/beta (Leishmania infantum, UniProt A0A381MCS3+A4HTR0); tubulin polymerization, inhibitor; 37 °C): 3500 ± 800 nM
Nc1nc2c(ncn2C2CC(O)C(COP(=O)(O)OCCCNC(=O)c3cccc(-c4cccc(Br)c4)c3)O2)c(=O)[nH]1 (stereo not shown)  IC50 (SAMHD1 (Homo sapiens, UniProt Q9Y3Z3); dNTPase activity, inhibitor, malachite green; 50 µM dATP substrate, added: 200 µM GTP activator): 70000 ± 50000 nM
